Experimental data from different studies.
Each numbered part is a random draw from the data of one study; scales do not carry over between parts.

Study 1
Target: Centromere-binding protein 1, full length, His-tagged (CBF1, Saccharomyces cerevisiae, UniProt P17106, residues 1-351)
UniProt P17106, sequence (whole entry, looked up): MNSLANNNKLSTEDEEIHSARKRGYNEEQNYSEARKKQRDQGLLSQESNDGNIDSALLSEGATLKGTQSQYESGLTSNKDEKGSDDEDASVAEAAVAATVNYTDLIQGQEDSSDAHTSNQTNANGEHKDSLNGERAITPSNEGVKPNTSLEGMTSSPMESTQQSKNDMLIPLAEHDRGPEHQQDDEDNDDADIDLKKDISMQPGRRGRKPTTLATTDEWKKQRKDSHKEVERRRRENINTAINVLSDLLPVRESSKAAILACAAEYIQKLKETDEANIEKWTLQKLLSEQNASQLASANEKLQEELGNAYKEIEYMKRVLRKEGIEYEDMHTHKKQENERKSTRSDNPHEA
Technique: competition protein-binding microarray
Molecule type: double-stranded DNA, one strand shown
Medium: in vitro
Tested at: 2 µM
Notes: whole 60-bp probe, lowest competitor level
Together with: Pho4 competitor, 0.05 µM
Reading: higher = stronger binding
Constant ends, left off below: … GTCTTGATTCGCTTGACGCTGCTG
Oligonucleotide	fluorescence intensity
CATACCCAACCTTGCTCGGTGGGTGAAGATATTTGT	58.8 a.u.
TGCGCAACAACTTGGTCGGTGGGTGTATGTCTAGAA	61.6 a.u.
ACTTTGGAAACTGTTTCCGTGATGGTTTCAGTGCCA	71.5 a.u.
CTAACGAAGGTTTGCTGTGTGGGTGACAAGCCAAGT	73.8 a.u.
AGTACACATACTTTGCACGTGCGGACGGAACAATGG	2140 a.u.
CTAACGAAGGTTTGACGTGTGGGTGACAAGCCAAGT	72.4 a.u.
CAGCTGGTTCTAACTCAGCTGATGGAACCTGCTTTC	63.4 a.u.
CGGGGTTAAGTTTGTATAGTGGGTGGCTTGCAGCAG	67.9 a.u.
GGGTTTCCTTCTGGTATGATAAATGTGAGCCAAATG	76 a.u.

Study 2
Target: RNA binding protein fox-1 homolog 2, RRM domain, GST-SBP tag (RBFOX2, Homo sapiens, UniProt O43251-10, residues 100-194)
Technique: RNA Bind-n-Seq
Molecule type: RNA
Medium: in vitro
Tested at: 365 nM
Notes: natural RNA segment, single round, ends assumed
Baseline: no-protein control
Reading: higher = stronger binding
Constant ends, left off below: GGGAGUUCUACAGUCCGACGAUC … UGGAAUUCUCGGGUGCCAA
Target sequence (chain): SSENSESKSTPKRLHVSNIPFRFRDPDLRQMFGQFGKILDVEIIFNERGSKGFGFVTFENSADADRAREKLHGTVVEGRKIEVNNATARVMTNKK
Oligonucleotide	RBNS enrichment (R)
AAAGUGUUCUGAGCCCAGUUCCUUGCCCCUCAAAACCCACAUCUGCUGUGACUUCUUAUCCAGGCCCCCAACUUAUGUCCUUAGGGUCAUCUUGGAGAACCACAAUGGAU	0.252
AGCAAUUGGUGUUUCUAUGUGUUUUCUAAAUAGAGAUGAUAUCUUUUUUUUUUUCACUUAGAAUUUAGCUCCAUUUGCUUGAGAGAGGGGGAAAAAUUCAUAUCUGUUUC	0.594
UUCACUGACCAUUGAGGGACUACAGAAAUCAGAAAUGGAUCCAAACUCAGAAGAGACCAUCCAAUCAUGAGCAAGUGACCCAGUCCCCUUUCCUCUCUGUAGAGGGAUGA	0.256
GAAGCCCUCUGAGAAAGCAGGGCAAAUAGGGUGUAAGGGGCUUGGUUUUUCUGUUAGCUUGGACCACUGCCUCAUCAGACAAUAUCAGCAGAUGUGCCUCAGUUUCCCCA	0.431
GAGCCGGCAGCAGUGAGGCAUUCAUUGUCUGUGUUGCGGUGUAUUCCCAGCUUCAGUGCUCUUUUCCUUUUUGCCUGAAAUGUUUAUGCUUCUCUGCAGCCAGUCCUCUA	0.543
UUCUCAGAGAGCCAAAGCUGAAUUCUCAGAGCUCCAAGGCCCUCCACAAGAUGCUAGAGGAAGCUCAGGGAAAAACAGGACGUAGGCGGAGCACAUCUGUGGUCAAUGGG	0.273
AUUACCACACCCUUCCCAGGGACCAGCACCUUUAAGCACUCCAGGGCCUUGAGGGAAUAAGGGGCCCCUGGCUCUGGGGACCCACCCGGUGGGACUUAGUGGUGAGACAC	0.408
UUAACAUCAUAUGGUCUGAAAAUGUGGGUUUUUAUUUGGCACAUUUAAAUAAAAUGUUUCUAACUAGUUUUUGAUUUGUGUUCAAUAUUAACACUUCUUAAUUUGAUAUA	0.559
UGAGUACAGCAGGCAAAAGCCCAUACCAGGCAGCAUGUUGUGGAUGGUUUAGUUCUCCCCGCCUCCCUGUUUCUUGGAAAAGCUACAGGGUCCCUGUAGGGCAAAAUUCC	1.58
AAAAUUUCAAGGGGUAUUAUUUAAAUGAUGAUUAUCUGGCUGAAUUAUGUGUGAGCUAGAAUCUAGGGUAGCUGUCCACUUCUUUUUCUGUUGUCCUGACAGUAAAGCAA	0.663
UCACAAAUUGAGGAGUGAAAUAGGAGACUGCAUGCUGGAUUUCAUGAUGAAAAUUUAUACUUUCACAUAGGAAAAUAAUUGCCUUUCCAUUGCUCCUUCUGAAGCAUUUC	1.87
CUAGAUUACGCUACCUGUGUUUGAAAAUAUUGCGCUUUGCCUAACCUUCGGUGGAAUGUAUUGUUUCAGCAUAUUCUAUGUAUAAAAAAGUUUAAAGAUGUCUUCAAAGA	0.357

Study 3
Target: Sal-like protein 4, full length isoform A (SALL4, Homo sapiens, UniProt Q9UJQ4, residues 1-1053)
UniProt Q9UJQ4, sequence (whole entry, looked up): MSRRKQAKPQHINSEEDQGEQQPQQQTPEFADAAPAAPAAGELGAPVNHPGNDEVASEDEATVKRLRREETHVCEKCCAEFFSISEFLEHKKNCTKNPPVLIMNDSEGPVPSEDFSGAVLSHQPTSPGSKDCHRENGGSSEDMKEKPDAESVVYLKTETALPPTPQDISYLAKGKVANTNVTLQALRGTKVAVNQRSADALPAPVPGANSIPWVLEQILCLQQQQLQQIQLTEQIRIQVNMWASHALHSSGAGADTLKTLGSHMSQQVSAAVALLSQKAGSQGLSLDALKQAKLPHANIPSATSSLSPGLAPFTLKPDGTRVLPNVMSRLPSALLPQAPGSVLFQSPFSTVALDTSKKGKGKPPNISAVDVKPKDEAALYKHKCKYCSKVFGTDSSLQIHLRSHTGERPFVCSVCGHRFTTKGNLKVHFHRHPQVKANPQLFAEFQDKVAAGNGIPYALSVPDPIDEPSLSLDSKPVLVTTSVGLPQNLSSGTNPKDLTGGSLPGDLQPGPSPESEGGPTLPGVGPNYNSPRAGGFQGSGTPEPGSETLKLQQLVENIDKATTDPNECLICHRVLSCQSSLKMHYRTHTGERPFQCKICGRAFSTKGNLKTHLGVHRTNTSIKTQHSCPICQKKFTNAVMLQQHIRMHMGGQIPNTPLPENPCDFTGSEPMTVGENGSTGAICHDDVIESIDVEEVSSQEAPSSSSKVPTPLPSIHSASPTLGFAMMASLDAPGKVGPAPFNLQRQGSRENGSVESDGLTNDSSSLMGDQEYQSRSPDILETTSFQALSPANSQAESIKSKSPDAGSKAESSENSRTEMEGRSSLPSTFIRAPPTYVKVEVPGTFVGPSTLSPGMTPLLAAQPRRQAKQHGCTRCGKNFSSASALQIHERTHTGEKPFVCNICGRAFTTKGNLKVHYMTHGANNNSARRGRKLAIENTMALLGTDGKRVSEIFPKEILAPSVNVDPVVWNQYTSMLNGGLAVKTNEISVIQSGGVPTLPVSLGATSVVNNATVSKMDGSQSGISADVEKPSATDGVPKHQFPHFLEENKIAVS
Technique: universal PBM
Molecule type: double-stranded DNA, one strand shown
Medium: in vitro
Tested at: 600 nM
Notes: 8-mer, flanks averaged, mean of replicates
Reading: higher = stronger binding
Oligonucleotide	E-score
CAAGCTTG	-0.00673
CTTCTCCA	-0.185
ATCACCCA	-0.0797
CCACTCAA	0.149
CACGCGAC	-0.124
CCGTCGGA	-0.233
ACGGAAGC	-0.171
AATTCGAC	-0.0411
CGACAGAC	-0.232
CTATTTCC	0.191

Study 4
Target: Histone acetyltransferase KAT6A, winged helix 2, GST fusion (KAT6A, Homo sapiens, UniProt Q92794, residues 85-181)
Technique: protein binding microarray
Molecule type: double-stranded DNA, one strand shown
Medium: in vitro
Tested at: not given
Notes: 8-mer, flanks averaged, mean of 2 arrays, mostly near background
Baseline: not given
Reading: higher = stronger binding
Residues (chain): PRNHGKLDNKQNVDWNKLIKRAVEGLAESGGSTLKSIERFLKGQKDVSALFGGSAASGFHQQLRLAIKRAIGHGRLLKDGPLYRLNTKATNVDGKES
Oligonucleotide	E-score
ACATTTCA	-0.0866
GGGGGTAC	0.00217
GAACCCCC	-0.182
CGGAGCCC	0.026
ACCGCCTG	0.166
ATCAAGAA	0.0751
AATCACGC	0.0134
ACCTACGG	-0.109
GCGTGCAA	0.0686
AGGAGTAC	-0.136
CGCGTAAA	-0.0208
CGACAAGA	0.0664
AGTGCTTC	-0.0465
ACGAGTTG	-0.0386
ACTGGCTG	-0.0231
GGACCCTA	-0.171
GTCCCTTA	-0.142
ACTCGTGA	-0.152
GCATGCGA	0.0207
TCGAAGAA	0.0715
ATCGAGAC	0.0274
AGGACCTG	-0.0159
CGACGTCC	0.0962
